# Published values from different studies.
# Lines come from different studies, so protocols differ. Values joined by “and” are separate records of one study, mostly repeats; a detail may differ. ± gives the spread as reported.
# FFAR4: Free fatty acid receptor 4 (FFAR4, Homo sapiens, UniProt Q5NUL3)
# NADH dehydrogenase [ubiquinone] iron-sulfur protein 7, mitochondrial/NADH dehydrogenase [ubiquinone] iron-sulfur protein 2, mitochondrial/MT-ND1: NADH dehydrogenase [ubiquinone] iron-sulfur protein 7, mitochondrial/NADH dehydrogenase [ubiquinone] iron-sulfur protein 2, mitochondrial/MT-ND1 (Homo sapiens, UniProt O75251+O75306+P03886)
# TRPM8: Transient receptor potential cation channel subfamily M member 8 (TRPM8, Homo sapiens, UniProt Q7Z2W7)
# Kir3.1/Kir3.2: Kir3.1/Kir3.2 (Homo sapiens, UniProt P48051+P48549)
# GAP50: Glideosome-associated protein 50 (GAP50, Plasmodium falciparum, UniProt Q8I2X3)
Structure (SMILES),target,test,test system,setting,scale,quantity,result
CCCC(CCC)c1nc2c(Nc3ccc(C#CCCCCCCCCN)cc3)nc3ccccc3c2[nH]1,"CHRM2 (Homo sapiens, UniProt P08172)",PDSP screening,,,,off-target affinity,inactive
O=c1[nH]c(NCCc2ccc(Br)cc2)c(Br)c(=O)[nH]1,FFAR4,"agonist, β-arrestin recruitment",CHO cells,10 µM,,activation,0%
O=S(=O)(O)C1CCNCC1,"SLC6A6 (Homo sapiens, UniProt P31641, Y138A)","binding, microscale thermophoresis",,"122 nM, room temperature, with: 50 nM labelled protein",higher = more binding,normalised MST signal,0.0549
CCOc1nc2cccc(C(=O)O)c2n1Cc1ccc(-c2ccccc2-c2nnn[nH]2)cc1,"LCN2 (Homo sapiens, UniProt P80188, C107S)",NMR line shape analysis,,"three-state model, state 2",,koff,21 ± 0.6 s⁻¹
CCN1CCN(c2cc(N3CCN(CC)CC3)nc(NCCNc3ccnc4cc(Cl)ccc34)n2)CC1,"Nuclear receptor subfamily 4 group A member 2 (Homo sapiens, UniProt P43354)","reporter gene, full-length homodimer NurRE reporter",,20 µM,relative to: vehicle,activation,1.45 fold
[2H]C([2H])(N)c1ccc(C(F)(F)F)cc1,"Maoa (Rattus norvegicus, UniProt P21396)","kcat pH profile ES complex, substrate",,pH 6.5-9.5,,pKa,7.6 ± 0.1
NC(=O)NOCCCCCCCCCCCCCCCC[P+](c1ccccc1)(c1ccccc1)c1ccccc1.O=C([O-])C(F)(F)F,"NADH dehydrogenase [ubiquinone] iron-sulfur protein 7, mitochondrial/NADH dehydrogenase [ubiquinone] iron-sulfur protein 2, mitochondrial/MT-ND1","complex I-dependent respiration, Seahorse XF96",HCT-116,"10 µM, 24 h",relative to: control,oxygen consumption rate,2.14%
O=C(NCc1ccc(CNS(=O)(=O)c2ccccc2)cc1)c1cccc(Cl)c1,"CXCR4 (Homo sapiens, UniProt P61073)","binding, inhibitor, competitive binding",MDA-MB-231,with: biotinylated TN14003,,EC,1000 nM
C=CC(=O)N1CCC(COCC(=O)N2CCN(c3nc(-c4cnc(N)nc4C(F)F)nc(N4CCOC[C@@H]4C)n3)CC2)CC1,"MAP4K2 (Homo sapiens, UniProt Q12851)",KINOMEscan,,1 µM,,remaining binding,81%
CCCCCCCCN(C)c1cc(=O)[nH]c(=O)[nH]1,FFAR4,"antagonist, β-arrestin recruitment",CHO cells,"10 µM, with: 4 µM TUG-891",,inhibition,22 ± 2%
Nc1ncnc2n[nH]c(Nc3ccc(F)cc3)c12,TRPM8,antagonist,HEK293,5 µM,relative to: control,remaining activity,108 ± 9.02%
NC(=O)NOCCCCCCCCCCCC[P+](c1ccccc1)(c1ccccc1)c1ccccc1.O=C([O-])C(F)(F)F,"NADH dehydrogenase [ubiquinone] iron-sulfur protein 7, mitochondrial/NADH dehydrogenase [ubiquinone] iron-sulfur protein 2, mitochondrial/MT-ND1","complex I-dependent respiration, Seahorse XF96",HCT-116,"2.5 µM, 24 h",relative to: control,oxygen consumption rate,33.9 ± 11.3%
COC(=O)c1cn(C)c2ccc(-c3cccnc3)cc12,"Nuclear receptor subfamily 4 group A member 2, LBD (Homo sapiens, UniProt P43354)","reporter gene, Gal4 hybrid reporter",,10 µM,relative to: vehicle,activation,0.32 fold
COC(=O)c1ccc(NC(=O)COc2cccc(Cl)c2Cl)s1,Kir3.1/Kir3.2,"activator, thallium flux",HEK293,concentration not given,,activity,inactive
Cc1ccc(Oc2ccc(NC(=O)CNc3ccccc3N3CCCC3=O)cc2)cc1,GAP50,"binding, surface plasmon resonance",,1:1 binding model,,koff,0.321 s⁻¹
COc1cc2ncc(-c3ccccc3)nc2cc1OC,TRPM8,antagonist,HEK293,5 µM,relative to: control,remaining activity,106 ± 9.63%
CN(CCCCCCNC(=O)COc1ccc(C2CCC(=O)NC2=O)cc1)Cc1cn(Cc2ccc(C(=O)NO)cc2)c2ccccc12.O=C(O)C(F)(F)F (centres unmarked),"HDAC10 (Homo sapiens, UniProt Q969S8)","degrader, western blot",MM1.S,"1 µM, 24 h",,degradation,75%
NC(Cc1cc(I)c(Oc2cc(I)c(O)c(I)c2)c(I)c1)C(=O)O (centres unmarked),"Thyroxine 5-deiodinase (DIO3, Homo sapiens, UniProt P55073, Y257A)",substrate,,"concentration not given, 10 min",relative to: average DMSO control,deiodinase activity,92.4%
Cc1n[nH]c(CC(=O)N2Cc3c(-c4ccc(C(=O)N5CCCc6ccccc65)cc4)cnn3C[C@H]2C)n1,"PRKN (Human, UniProt O60260)",nanoDSF,,"200 µM, 2 µM parkin",,Tm,54 °C
c1cncc(NCc2ccc(-c3cc4ccncc4cc3OC3CCNCC3)s2)c1,GAP50,"binding, surface plasmon resonance",,1:1 binding model,,kon,8680 M⁻¹ s⁻¹
COc1ccc(OC)c2c(=S)c3ccccc3[nH]c12,TRPM8,antagonist,HEK293,5 µM,relative to: control,remaining activity,104 ± 2.11%
CCc1cc(NC(=O)COc2ccc(Cl)cc2Cl)n(C2CCC(F)(F)CC2)n1,Kir3.1/Kir3.2,thallium flux,HEK293,,relative to: GIRK1/4 EC50 over Kir3.1/Kir3.2 EC50,selectivity ratio,12.2 fold and 12 fold
c1ccc(C(NCc2cccnc2)(c2ccccc2)c2ccccc2)cc1,"KCNQ1 (Homo sapiens, UniProt P51787)",whole-cell patch clamp,,"100 pM, at -120 mV",,deactivation time constant,87 ± 22 ms
N[C@@H](CCCCB(O)O)C(=O)O,"Arginase (Schistosoma mansoni, UniProt Q6WVP6)",isothermal titration calorimetry,,concentration not given,,binding enthalpy,-11.4 ± 0.3 kcal/mol
CC[C@@H]1[C@H](F)C(=O)N[C@@H]1COc1nccc2cc(C(N)=O)c(OC)cc12,"CDK9 (Homo sapiens, UniProt P50750)","ATP-site probe binding, ActivX profiling",THP-1 cell lysate,"0.01 mM, Lys2 site",,inhibition,16.2%
COc1cc(F)ccc1-c1ncnc(Nc2cccc(C[S@](C)(=N)=O)c2)n1,"ROCK1 (Homo sapiens, UniProt Q13464)",kinase activity,,"10 µM, with: 10 µM ATP",,remaining activity,93%
NC(=O)NOCCCCCCCCCCCCCCCCCCCC[P+](c1ccccc1)(c1ccccc1)c1ccccc1.O=C([O-])C(F)(F)F,"NADH dehydrogenase [ubiquinone] iron-sulfur protein 7, mitochondrial/NADH dehydrogenase [ubiquinone] iron-sulfur protein 2, mitochondrial/MT-ND1","complex I-dependent respiration, Seahorse XF96",HCT-116,"3 µM, 24 h",relative to: control,oxygen consumption rate,8.51 ± 1.25%
Cc1cc(N)c2c(C)nn(-c3ccccc3)c2n1,"3-oxoacyl-[acyl-carrier-protein] reductase FabG (fabG, Pseudomonas aeruginosa, UniProt O54438)","enzyme activity, inhibitor, NADPH fluorescence",,"reverse reaction, with: 3-OH-decanoyl-NAC, NADP",,Hill slope,1.6
O=C1O/C(=C\c2cc(F)ccc2OCCCN2CCOCC2)c2cc(Cc3cccc(F)c3)[nH]c(=O)c21,"Dual specificity calcium/calmodulin-dependent 3',5'-cyclic nucleotide phosphodiesterase 1C, isoform PDE1C2 (PDE1C, Homo sapiens, UniProt Q14123)","enzyme activity, inhibitor",,with: 3H-cGMP substrate,,ligand efficiency,0.3
CC(C)(C)c1ccc(CCNc2cc(=O)[nH]c(=O)[nH]2)cc1,FFAR4,"agonist, β-arrestin recruitment",CHO cells,10 µM,,activation,-1 ± 1%
c1ccc(Oc2ccc(-c3cc(N4CCOCC4)n[nH]3)cc2)cc1,GAP50,"binding, surface plasmon resonance",,1:1 binding model,,koff,1.14 s⁻¹
COc1ccc(F)cc1C(=O)NCc1ccc(-c2nn([C@@H](C)C(F)(F)F)c(N)c2C(N)=O)cc1,"Cyclin-dependent kinase 19, with cyclin C (CDK19, Homo sapiens, UniProt Q9BWU1)","kinase activity, inhibitor, HotSpot radiometric",,"100 nM, with: ATP 10 µM",,remaining activity,101 ± 1.3%
O=c1cc(N2CCC(c3ccccc3)CC2)[nH]c(=O)[nH]1,FFAR4,"antagonist, β-arrestin recruitment",CHO cells,"10 µM, with: 4 µM TUG-891",,inhibition,-12 ± 6%
Nc1ncnc2c1nc(Br)n2[C@@H]1O[C@@H]2COP(=O)(O)O[C@H]2[C@H]1O,anti-cAMP antibody,"antibody binding, competitive cAMP EIA",,"concentration not given, acetylated samples","relative to: EC50 cAMP over EC50 cpd, higher = stronger binding",relative binding affinity,0.0043
c1ccc(Oc2ccc(-c3cc(C4CCOCC4)[nH]n3)cc2)cc1,GAP50,"binding, surface plasmon resonance",,1:1 binding model,,koff,0.0195 s⁻¹
N#Cc1ccc2[nH]cc(CCCCN3CCN(c4ccc5oc(C(N)=O)cc5c4)CC3)c2c1,"SLC6A4 (Homo sapiens, UniProt P31645)","serotonin uptake, inhibitor",COS-7 expressing SLC6A4,"15 min preincubation, with: [3H]5-HT",,Hill coefficient,2.09 ± 0.41
CCc1nc(-c2ccc(OC)cc2)[nH]c1-c1ccncc1,TRPM8,antagonist,HEK293,5 µM,relative to: control,remaining activity,100 ± 8.87%
CC1=NCCNC(=O)C1=NNc1ccc(S(N)(=O)=O)cc1,"Alpha-amylase (Bos taurus, UniProt Q3MHH8)","enzyme activity, inhibitor, glucose oxidase",,"500 µg/mL, with: dextrin",,inhibition,15.9%
Nc1nc2c(ncn2[C@@H]2O[C@H](COP(=O)(O)O)[C@@H](O)[C@H]2O)c(=O)[nH]1,"GUK1 (Homo sapiens, UniProt Q16774, S37P)","enzyme activity, NADH-coupled",,2000 µM,,reaction rate,2.56 s⁻¹ and 0.46 s⁻¹ and 2.47 s⁻¹
Cc1nn(C2CCS(=O)(=O)C2)c(C)c1NC(=O)COc1ccc(C(F)(F)F)cc1C(F)(F)F (centres unmarked),Kir3.1/Kir3.2,"activator, thallium flux",HEK293,concentration not given,,activity,inactive
C[C@@H](O)[C@@H](CO)NC(=O)[C@@H](CCCNC(=N)N)NC(=O)[C@@H]1CCCN1C(=O)[C@@H]1CSSC[C@H](NC(=O)[C@H](Cc2ccccc2)NC(=O)CN2CCN(CC(=O)O)CCN(CC(=O)O)CCN(CC(=O)O)CC2)C(=O)N[C@@H](Cc2ccc(O)cc2)C(=O)N[C@@H](Cc2ccccc2)C(=O)N[C@@H](CCC(N)=O)C(=O)N[C@@H](CC(N)=O)C(=O)N1 [gallium-68 labelled],"AVPR1B (Homo sapiens, UniProt P47901)",radioreceptor binding,,"concentration not given, V1b receptor 31.25 nM, with: tracer 0.3 µM",,binding,21.8%
CC(C)OCCn1c(=S)[nH]c(=O)c2[nH]ccc21,"Myeloperoxidase (MPO, Homo sapiens, UniProt P05164)","inhibitor, cholesteryl ester hydroperoxide",,0.0137 µM,relative to: control,LDL lipid peroxidation,134% and 103% and 97.3% and 91.2%
Nc1nc2c(F)cccc2[nH]1,"HVCN1 (Homo sapiens, UniProt Q96D96)","proton current, inhibitor, inside-out patch clamp",Xenopus oocytes,dimeric channel,,Hill coefficient,1.13 ± 0.1
O=c1nc(SCc2cc(F)cc(C(F)(F)F)c2)nc(SCc2ccc3nc(Cl)ccc3c2)[nH]1,"TOP2A (Homo sapiens, UniProt P11388)",ATPase activity,,"125 µM, with: ATP 0.05 mM",,ATP hydrolysis rate,0.498 µM/min and 0.207 µM/min
Nc1ncnc2c1ncn2[C@@H]1O[C@H](COP(=O)(O)CP(=O)(O)OP(=O)(O)O)[C@@H](O)[C@H]1O,"P2X purinoceptor 1 (P2RX1, Homo sapiens, UniProt P51575, K136W)",calcium influx,,3.16 µM,relative to: ionomycin response,calcium influx,96.4% and 100% and 85.4%
CC(C)CNc1cc(=O)[nH]c(=O)[nH]1,FFAR4,β-arrestin recruitment,CHO,10 µM,relative to: 30 µM TUG-891,agonist effect,2 ± 1%
C#CCNCCCN1CCN(CCCNC(=O)c2ccc(C(=O)c3ccc([N+](=O)[O-])cc3)cc2)CC1,"TMEM97 (Homo sapiens, UniProt Q5BJF2)",radioligand binding,RT-4 cell membranes,,relative to: sigma1 Ki over sigma2 Ki,Ki ratio,7.39
COc1cccc(-n2nc3c4cc(Cl)ccc4[nH]cc-3c2=O)c1,"Gamma-aminobutyric acid receptor subunit alpha-4/beta-3, with delta subunit (Rattus norvegicus, UniProt P28471+P63079)","modulator, two-electrode voltage clamp",α4β3δ receptor,"1 nM, with: GABA EC3-10",relative to: GABA alone,GABA current,100%
N[C@@H](CS)C(=O)O,"Cysteine--tRNA ligase, cytoplasmic (Homo sapiens, UniProt P49589)","enzyme activity, inhibitor, aminoacylation LC-MS/MS",,"pH 7.6, 37 °C, Mg2+ 15.6 mM, with: ATP 1 mM, yeast tRNA",,Ki,352 µM
O=c1cc(NCCc2cccc(F)c2)[nH]c(=O)[nH]1,FFAR4,"agonist, β-arrestin recruitment",CHO cells,10 µM,,activation,0%
Oc1ccccc1-c1n[nH]cc1-c1ccnc2ccccc12,"YCK2 (Candida albicans, UniProt A0A1D8PKB4)","kinase binding, MIB/MS competition",Candida albicans lysate,1 µM,"relative to: DMSO, negative = stronger binding",log2 fold change,-1.13
CCCCCCCCNc1[nH]c(=O)[nH]c(=O)c1N=O,FFAR4,"agonist, β-arrestin recruitment",CHO cells,10 µM,,activation,0 ± 1%
CC(C)(c1cc(Br)c(OCCO)c(Br)c1)c1cc(Br)c(OCCO)c(Br)c1,"ATP2A1 (Oryctolagus cuniculus, UniProt P04191)",ATPase activity,rabbit microsomes,"concentration not given, pH 7.3, with: ATP 5 mM",,SERCA1 inhibition,inactive

# For quick reference, copied from above:
Structure (SMILES),target,test,test system,setting,scale,quantity,result
Cc1cc(N)c2c(C)nn(-c3ccccc3)c2n1,"3-oxoacyl-[acyl-carrier-protein] reductase FabG (fabG, Pseudomonas aeruginosa, UniProt O54438)","enzyme activity, inhibitor, NADPH fluorescence",,"reverse reaction, with: 3-OH-decanoyl-NAC, NADP",,Hill slope,1.6
O=C1O/C(=C\c2cc(F)ccc2OCCCN2CCOCC2)c2cc(Cc3cccc(F)c3)[nH]c(=O)c21,"Dual specificity calcium/calmodulin-dependent 3',5'-cyclic nucleotide phosphodiesterase 1C, isoform PDE1C2 (PDE1C, Homo sapiens, UniProt Q14123)","enzyme activity, inhibitor",,with: 3H-cGMP substrate,,ligand efficiency,0.3
CC(C)(C)c1ccc(CCNc2cc(=O)[nH]c(=O)[nH]2)cc1,FFAR4,"agonist, β-arrestin recruitment",CHO cells,10 µM,,activation,-1 ± 1%
